Measured values of several laboratories.
Each numbered part is a random draw from the data of one study; scales do not carry over between parts. Changes are numbered by the printed parent chain.

Block 1 — technique: RNA Bind-n-Seq; form: RNA; medium: in vitro; concentration: 365 nM; reference: no-protein control; reading: higher = stronger binding
Target: RNA binding protein fox-1 homolog 2, RRM domain, GST-SBP tag (RBFOX2, Homo sapiens, UniProt O43251-10, residues 100-194)
Notes: natural RNA segment, single round, ends assumed
Constant ends, left off below: GGGAGUUCUACAGUCCGACGAUC … UGGAAUUCUCGGGUGCCAA
Target sequence (chain): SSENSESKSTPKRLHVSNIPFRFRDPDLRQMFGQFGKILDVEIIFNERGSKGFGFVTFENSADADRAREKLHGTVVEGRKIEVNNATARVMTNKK
Oligonucleotide | RBNS enrichment (R)
AAGUAGCCAAAGAAACUCUGUCACUUUGGUAACACCAGAACUUGCCACAUGUAGCUACUACAGCAAGGCUUCUGUGUACUUGCCGGAAACGAAGGGAGGUCCUGCUCACU | 0.244
GAUUCGUACCGAAGAACCUUGUGGAAUCCCUUUGCUUAGGCCCAACCUGGUCGAUAGCUCGAGAAAGAAUUUUUUCCAAGGAAAUGUCUCGGAUAUGGGUACUGUAUUUG | 0.337
CUGUGUGUCUGUGUCUCAGUUGCUCUGGCAGAAAAAUGGGGUUAAACUUGCCCUUUCUGAAGGCAAGCCUAGAAUUGGGUCUUUUGUUGUCAUUGUUCCAAAUUUCCAGA | 0.502
UAAGUUAAAGAAGACAAGUGUCAUCAGACACUUGGGACCCGGGCUCUCUUUAAAGUCUAGUCCCGGCAUUCCUCCAUGUGAUUGACAGCCAGACCUCUGGGUUCCCAGGA | 0.189
GGUACCAAUCAUUGAUUUUUUUUUUUUUUGUAAACUAAAAUGUUUAAAAUAAAAUAGCAUUUACAGUUUUACAGACUGGUGUAACCUAAAUGAAUUGUUACCUGUGUUAC | 0.782
AAAGCCUGUGAUGGAGGAGCACAAGACCCUGUCUGCUGAGGGCCCAUGCUCCUCUCAUGGGUUUCUUCCCACCUAGCCAGUGCCUUCAUUUGCUUGUUGUACAGUUUCUU | 1.99
UGCCAAAAAUGUGUUUUCAGAGGAAAUCUUAUUUUCAUAUUCAGACUUUGUAUUGCCCACUCAUUUGUAUAAGUGCGCUUCGGUACAGCACGGGUCCUGCUCCCGCGAUG | 0.467
CAUACUAUUAGGCACACUUUCCCCUUAGAGCCCCCUAAGUUUUUCCCAGACGAAUCUUUAUAAUUUCUUUCCAAAGAUACCAAAUAAACUUCAGUGUUUUCAUCUAAUUC | 0.895
CAGUUAUGUUGUUUAUGGCUCAAGAUGUCAUUAGAAAUACUGCAGUGGUGUAUUCACAGCUGCUCCUUCUCUGAAUGAAAGAGUGUAGGGACACCUGCCACCAUGGCCAG | 0.367
AACAGAAUUUGGUAGCACUUACCUCUACAGACACCUGCUAAUAAAUUAUUUUCUGUCAAAAGAAAAAACACAAGCAUGUGUGAGAGACAGUUUGGAAAAAUCAUGGUCAA | 0.937
CUAAUGCAGUUUUUCAAAUUCUAGUAUUAUGUGUUGCUUAAGAUCACUACAGAGAUGCUACUGAAGAGAGACGGUAGUACAGCUCUCUUGCAGUACUGCCUGCCGUUGGU | 0.299
CAGAAGUAGGCUGUGUCCCAUCAGAUCAAUCUGCACCUUCCUGUGGUUGUGCAAACAUCACGGGGCCCUACCCUGAUCCCCAAGGCCCCACCAUCACUGCCCAAGGGGGU | 0.336

Block 2 — technique: protein-binding microarray; form: double-stranded DNA, one strand shown; medium: in vitro; concentration: 250 nM; notes: 60-bp whole probe; added: salmon DNA 0.4 mg/ml; reference: random background probes; reading: higher = stronger binding; constant ends, left off below: GCCTAGCAC … GTCTTGATTCGCTTGACGCTGCTG
Target: Interferon regulatory factor 7, full length, phosphomimetic (IRF7, Homo sapiens, UniProt Q92985, residues 1-503, S101K/S471D/S472D/S475D/S476D/S477D/S483D/S484D/S487D)
Sequence of UniProt Q92985 (whole entry, unmodified, looked up): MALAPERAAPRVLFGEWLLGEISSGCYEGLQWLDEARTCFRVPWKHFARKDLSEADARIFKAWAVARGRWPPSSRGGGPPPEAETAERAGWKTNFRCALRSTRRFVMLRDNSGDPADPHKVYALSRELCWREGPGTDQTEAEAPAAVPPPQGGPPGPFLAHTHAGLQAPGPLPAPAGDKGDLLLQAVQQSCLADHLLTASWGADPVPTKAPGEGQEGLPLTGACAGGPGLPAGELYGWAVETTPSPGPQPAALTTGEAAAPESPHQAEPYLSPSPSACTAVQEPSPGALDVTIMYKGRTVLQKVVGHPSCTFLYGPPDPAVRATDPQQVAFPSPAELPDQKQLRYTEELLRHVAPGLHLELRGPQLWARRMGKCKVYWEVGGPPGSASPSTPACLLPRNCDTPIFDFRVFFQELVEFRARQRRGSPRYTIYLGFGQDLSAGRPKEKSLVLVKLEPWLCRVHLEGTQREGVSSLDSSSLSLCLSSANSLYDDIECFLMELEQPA
Oligonucleotide | log fluorescence
TCTTGTCTGGATGTGCCTTAGTGCTAG | 0.085 z-score
TTAGAACTGAGTCTCCATTAGTGCTAG | 0.211 z-score
TTAAGACTGGGACTGGGTTAGTGCTAG | -0.228 z-score
TGAGGACTGGACACTGGGTTAGTGCTA | -0.717 z-score
TTAGGTATCTGTTTCGGTTAGTGCTAG | 4.91 z-score
AGAGATGTGGGACTCACCTAGTGCTAG | -0.159 z-score
GACGAACTGGGGTTGCGAGACGTGCTA | -0.771 z-score
GACGATTTCAATCTCGAGACGTGCTAG | 0.447 z-score
GACGATTTCAGACTGGAGCCGTGCTAG | -0.14 z-score
TTATATTTCAGTATCGATTAGTGCTAG | 1.87 z-score
GAGAGTAGCTTTCTGAGGGCGTGCTAG | -0.527 z-score
TTAGGTTACCTTTTCCTTTAGTGCTAG | 1.57 z-score
CAAATACTCTTCCATGGAGAAGTGCTA | 0.632 z-score
GAAGATTTCAATTAGAAAAAGTGCTAG | 0.607 z-score
TTAGGTTTCGGTCTCGGTTCGTGCTAG | 9.65 z-score
GACGATAGCGGGTATCGAGACGTGCTA | -0.371 z-score
TCAGGCTTTCCTTTATGACTGTGCTAG | -0.00811 z-score
TGCGGTTCAGATATAGGATAGTGCTAG | -0.373 z-score
GACGATTTCGGGCCTGGAGACGTGCTA | -0.0825 z-score

Block 3 — technique: aptamer microarray, sandwich; form: DNA with 2'F-ANA; medium: in vitro; concentration: 200 nM; added: Cy3 exosite-II aptamer, 400 nM; reading: higher = stronger binding; oligonucleotide: GGTTGGTGTGGTTGG
Target: Prothrombin, mature alpha-thrombin (F2, Homo sapiens, UniProt P00734)
Notes: whole 15-mer aptamer, many near background
Modification | mean fluorescence intensity
2'F-ANA at 2 3 8 11 12 13 15 | 835 a.u.
2'F-ANA at 4 5 7 8 11 14 15 | 45.1 a.u.
2'F-ANA at 3 7 9 13 14 | 648 a.u.
2'F-ANA at 2 3 5 6 7 8 9 11 15 | 98.9 a.u.
2'F-ANA at 1 3 6 7 8 9 11 15 | 247 a.u.
2'F-ANA at 1 3 6 7 8 9 10 12 14 | 67.3 a.u.
2'F-ANA at 2 3 4 5 6 7 9 11 13 14 | 48.4 a.u.
2'F-ANA at 1 3 6 12 13 | 451 a.u.
2'F-ANA at 3 4 5 6 7 8 9 11 13 15 | 62.6 a.u.
2'F-ANA at 5 7 8 9 14 | 52.5 a.u.
2'F-ANA at 1 3 6 7 9 11 13 14 15 | 74.4 a.u.
2'F-ANA at 4 5 10 | 46.7 a.u.
2'F-ANA at 1 2 3 4 5 6 7 13 15 | 61.8 a.u.
2'F-ANA at 3 5 7 8 11 12 13 14 15 | 89.8 a.u.
2'F-ANA at 1 2 4 5 8 11 12 14 15 | 43.9 a.u.
2'F-ANA at 1 2 7 10 11 15 | 51.2 a.u.
2'F-ANA at 3 5 7 9 10 11 12 13 | 65.6 a.u.
2'F-ANA at 1 4 5 6 9 10 11 12 14 | 44.6 a.u.
2'F-ANA at 3 4 6 7 8 9 10 11 12 13 15 | 221 a.u.
2'F-ANA at 3 7 8 9 13 15 | 897 a.u.
2'F-ANA at 1 5 7 8 11 15 | 87.7 a.u.
2'F-ANA at 1 3 6 8 9 10 15 | 82.7 a.u.
2'F-ANA at 1 2 3 5 12 13 | 88.7 a.u.
2'F-ANA at 1 2 4 7 9 11 | 105 a.u.
2'F-ANA at 1 3 10 12 13 15 | 111 a.u.

Block 4 — target: CCNE1, cyclin fold, Cln2 fusion (human); technique: yeast growth competition, sequencing; medium: yeast; notes: strong parent motif; reference: not given; reading: higher = stronger binding
Starting sequence: PKN2 docking peptide (human); VSAVRKLDFSDTM
Substitution | normalised enrichment score
VSAVRKLEFSDTM [D8E] | 5.04
VSAVRKLDFSDQM [T12Q] | 5.31
VSAVRKADFSDTM [L7A] | 0.0658
VSAVRILDFSDTM [K6I] | 4.53
VSPVRKLDFSDTM [A3P] | 2.16
VSQVRKLDFSDTM [A3Q] | 0.522
VSAVLKLDFSDTM [R5L] | 0.691
VSAVRKLDRSDTM [F9R] | 0.0373
VSAVRPLDFSDTM [K6P] | 0.283
VSAVRKLWFSDTM [D8W] | 3.45
VSAGRKLDFSDTM [V4G] | 0.277
VSAVRKLDFSETM [D11E] | 5.32
VSAVRKLDFSGTM [D11G] | 5.23
VSAVRKLDLSDTM [F9L] | 0.876
VSAVRKLNFSDTM [D8N] | 4.97
VSAVIKLDFSDTM [R5I] | 0.753
VSAVRKLDFSNTM [D11N] | 5.01
VMAVRKLDFSDTM [S2M] | 4.48
VSNVRKLDFSDTM [A3N] | 0.208
VSAVRKLDFPDTM [S10P] | 5.12
VSAVRKLCFSDTM [D8C] | 4.5

Block 5 — technique: competition protein-binding microarray; form: double-stranded DNA, one strand shown; medium: in vitro; concentration: 2 µM; added: Pho4 competitor, 0.05 µM; reading: higher = stronger binding; constant ends, left off below: … GTCTTGATTCGCTTGACGCTGCTG
Target: Centromere-binding protein 1, full length, His-tagged (CBF1, Saccharomyces cerevisiae, UniProt P17106, residues 1-351)
Sequence of UniProt P17106 (whole entry, looked up): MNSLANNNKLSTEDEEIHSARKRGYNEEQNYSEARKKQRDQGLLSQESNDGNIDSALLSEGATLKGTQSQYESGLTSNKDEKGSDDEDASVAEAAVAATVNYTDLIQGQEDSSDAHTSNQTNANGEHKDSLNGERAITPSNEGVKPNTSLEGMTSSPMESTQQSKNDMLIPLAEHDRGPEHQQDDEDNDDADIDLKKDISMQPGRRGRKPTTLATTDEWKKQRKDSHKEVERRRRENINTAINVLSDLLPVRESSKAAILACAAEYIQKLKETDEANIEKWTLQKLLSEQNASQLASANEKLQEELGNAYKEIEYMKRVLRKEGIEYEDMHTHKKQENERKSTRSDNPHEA
Notes: whole 60-bp probe, lowest competitor level
Oligonucleotide | fluorescence intensity
GGAGTCAACGCTTTGCACGTGACGGCGGTACATAGT | 4660 a.u.
CCGAGGTTTGTTGGGTACGTGCAAAAGCGCCTGGGC | 61.8 a.u.
AAGAAACATACCCATCACGTGACGGCAAGAATGTTA | 12400 a.u.
GTCTTGTCTCATTGTAGCGTGGGTGTCCCCACTTCA | 70.5 a.u.
AAATTACTAAGTTGTCGTGTGGGTGACGCCGTATGA | 68.1 a.u.
CTAACGAAGGTTTGTCACCGTACTTACAAGCCAAGT | 80.3 a.u.
TTTTTAATTTCTTATCATGCTCAATGTCAACAACTT | 91.6 a.u.
ATGCCCTGCTATCTTCACGTGGTCGAATAGCTTATT | 1330 a.u.
CGGGGTTAAGTTTACCACGTGTTTTGCTTGCAGCAG | 1260 a.u.
GTCTTGTCTCATTGTCACATTACTTTCCCCACTTCA | 122 a.u.
ATTTGAAGCTCCAATCACGTGATGGAAAGCTGTAAG | 9730 a.u.
CGGGGTTAAGTTTGCGCGGTGGGTGGCTTGCAGCAG | 56.8 a.u.
CTGCGCATACGAATACACATGAGTGCCATAAAACAA | 97.9 a.u.
TCTGGCTTGCGCGGCCTCGTGCCAGTAAGTAGAAAA | 89.3 a.u.
GAACTGCCACCTCACCACGTGTGTTCCTCGCAAGCC | 608 a.u.
TTCAGAGAACTCCTTCATGTGCTTCAAGACAGAGTC | 91 a.u.
TTGTCTGTGCATTGGCATGCGCAAGCATTCGATGAA | 67 a.u.
AAATTACTAAGTTTTCACGTGAGGTACCCCGTATGA | 940 a.u.

A few entries again (block 2):
Oligonucleotide | log fluorescence
GACGATTTCAGACTGGAGCCGTGCTAG | -0.14 z-score
TTATATTTCAGTATCGATTAGTGCTAG | 1.87 z-score
GAGAGTAGCTTTCTGAGGGCGTGCTAG | -0.527 z-score
TTAGGTTACCTTTTCCTTTAGTGCTAG | 1.57 z-score
CAAATACTCTTCCATGGAGAAGTGCTA | 0.632 z-score
GAAGATTTCAATTAGAAAAAGTGCTAG | 0.607 z-score
TTAGGTTTCGGTCTCGGTTCGTGCTAG | 9.65 z-score
GACGATAGCGGGTATCGAGACGTGCTA | -0.371 z-score
